Assay results collected from several papers.
Lines come from different studies, so protocols differ. Values joined by “and” are separate records of one study, mostly repeats; a detail may differ. ± marks the error that the study gave.
F12: Coagulation factor XII (F12, Homo sapiens, UniProt P00748)
Chain of UniProt P00748 (whole entry, looked up): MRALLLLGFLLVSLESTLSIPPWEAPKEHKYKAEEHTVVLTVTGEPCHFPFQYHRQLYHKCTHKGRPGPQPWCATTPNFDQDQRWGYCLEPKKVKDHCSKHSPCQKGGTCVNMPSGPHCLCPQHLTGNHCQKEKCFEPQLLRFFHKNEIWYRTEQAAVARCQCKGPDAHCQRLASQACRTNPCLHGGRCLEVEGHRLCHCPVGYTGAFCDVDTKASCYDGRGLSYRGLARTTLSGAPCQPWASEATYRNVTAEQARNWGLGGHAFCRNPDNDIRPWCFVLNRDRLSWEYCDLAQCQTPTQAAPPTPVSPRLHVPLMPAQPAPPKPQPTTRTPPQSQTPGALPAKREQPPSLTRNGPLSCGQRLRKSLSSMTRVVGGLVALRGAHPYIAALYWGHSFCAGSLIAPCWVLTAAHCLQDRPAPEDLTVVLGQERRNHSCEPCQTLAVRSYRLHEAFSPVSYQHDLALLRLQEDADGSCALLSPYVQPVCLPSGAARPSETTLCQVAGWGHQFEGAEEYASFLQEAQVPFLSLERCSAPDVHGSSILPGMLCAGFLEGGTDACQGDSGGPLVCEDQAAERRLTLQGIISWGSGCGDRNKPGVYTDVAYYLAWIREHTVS
Urease subunit alpha: Urease subunit alpha (Sporosarcina pasteurii, UniProt P41020)
Chain of UniProt P41020 (whole entry, looked up): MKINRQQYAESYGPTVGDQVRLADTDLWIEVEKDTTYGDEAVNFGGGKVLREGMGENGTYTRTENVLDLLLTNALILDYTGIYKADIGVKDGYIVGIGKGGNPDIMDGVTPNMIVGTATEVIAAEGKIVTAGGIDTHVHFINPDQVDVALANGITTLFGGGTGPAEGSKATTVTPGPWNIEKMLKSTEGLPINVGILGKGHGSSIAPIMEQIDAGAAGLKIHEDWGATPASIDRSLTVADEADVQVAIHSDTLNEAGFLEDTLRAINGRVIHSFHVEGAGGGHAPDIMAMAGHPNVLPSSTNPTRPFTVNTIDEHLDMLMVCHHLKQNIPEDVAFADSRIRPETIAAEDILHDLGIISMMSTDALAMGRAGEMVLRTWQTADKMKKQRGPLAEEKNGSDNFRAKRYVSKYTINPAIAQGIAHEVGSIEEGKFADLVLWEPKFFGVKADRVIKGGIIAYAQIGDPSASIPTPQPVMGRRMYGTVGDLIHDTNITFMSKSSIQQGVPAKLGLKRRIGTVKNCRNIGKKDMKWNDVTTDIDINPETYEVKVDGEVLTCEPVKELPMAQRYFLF
HRH4: Histamine H4 receptor (HRH4, Homo sapiens, UniProt Q9H3N8)
Chain of UniProt Q9H3N8 (whole entry, looked up): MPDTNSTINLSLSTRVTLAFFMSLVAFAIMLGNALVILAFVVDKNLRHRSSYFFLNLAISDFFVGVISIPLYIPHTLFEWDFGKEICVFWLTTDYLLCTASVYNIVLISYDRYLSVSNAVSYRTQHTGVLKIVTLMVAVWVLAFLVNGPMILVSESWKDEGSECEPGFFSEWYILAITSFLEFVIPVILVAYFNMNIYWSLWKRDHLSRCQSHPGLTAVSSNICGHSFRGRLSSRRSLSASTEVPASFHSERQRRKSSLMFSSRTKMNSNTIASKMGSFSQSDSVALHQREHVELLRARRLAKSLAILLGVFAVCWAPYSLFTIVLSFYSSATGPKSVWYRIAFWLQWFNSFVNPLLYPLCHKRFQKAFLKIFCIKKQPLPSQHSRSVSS
HTR4: 5-hydroxytryptamine receptor 4 (HTR4, Homo sapiens, UniProt Q13639)
Chain of UniProt Q13639 (whole entry, looked up): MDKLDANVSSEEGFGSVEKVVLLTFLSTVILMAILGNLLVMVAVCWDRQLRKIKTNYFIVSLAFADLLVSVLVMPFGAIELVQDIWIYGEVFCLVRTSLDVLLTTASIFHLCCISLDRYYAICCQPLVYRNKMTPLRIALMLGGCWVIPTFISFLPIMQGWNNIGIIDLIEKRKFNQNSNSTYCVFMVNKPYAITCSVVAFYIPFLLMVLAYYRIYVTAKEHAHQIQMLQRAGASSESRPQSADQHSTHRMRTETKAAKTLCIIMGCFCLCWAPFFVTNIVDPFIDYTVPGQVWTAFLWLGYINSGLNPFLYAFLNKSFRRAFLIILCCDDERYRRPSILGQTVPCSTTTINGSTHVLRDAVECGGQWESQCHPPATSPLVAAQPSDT
DRD5: D(1B) dopamine receptor (DRD5, Homo sapiens, UniProt P21918)
Chain of UniProt Q13131 (whole entry, looked up): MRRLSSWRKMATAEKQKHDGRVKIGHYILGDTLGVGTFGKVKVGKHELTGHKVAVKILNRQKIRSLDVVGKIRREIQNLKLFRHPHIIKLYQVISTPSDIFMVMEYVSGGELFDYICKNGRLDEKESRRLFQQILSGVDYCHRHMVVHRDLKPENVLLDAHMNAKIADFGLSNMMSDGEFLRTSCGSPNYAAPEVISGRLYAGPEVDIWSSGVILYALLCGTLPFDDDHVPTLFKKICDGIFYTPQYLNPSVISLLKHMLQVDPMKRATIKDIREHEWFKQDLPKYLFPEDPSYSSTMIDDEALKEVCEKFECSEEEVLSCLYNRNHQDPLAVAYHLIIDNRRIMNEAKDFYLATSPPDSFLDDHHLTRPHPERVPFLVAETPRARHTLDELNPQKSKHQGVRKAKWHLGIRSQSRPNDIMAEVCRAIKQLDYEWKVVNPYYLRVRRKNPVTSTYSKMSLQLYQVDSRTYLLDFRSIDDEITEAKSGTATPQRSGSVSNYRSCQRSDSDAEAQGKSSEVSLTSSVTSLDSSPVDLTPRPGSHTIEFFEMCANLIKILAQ
Chain of UniProt O14920 (whole entry, looked up): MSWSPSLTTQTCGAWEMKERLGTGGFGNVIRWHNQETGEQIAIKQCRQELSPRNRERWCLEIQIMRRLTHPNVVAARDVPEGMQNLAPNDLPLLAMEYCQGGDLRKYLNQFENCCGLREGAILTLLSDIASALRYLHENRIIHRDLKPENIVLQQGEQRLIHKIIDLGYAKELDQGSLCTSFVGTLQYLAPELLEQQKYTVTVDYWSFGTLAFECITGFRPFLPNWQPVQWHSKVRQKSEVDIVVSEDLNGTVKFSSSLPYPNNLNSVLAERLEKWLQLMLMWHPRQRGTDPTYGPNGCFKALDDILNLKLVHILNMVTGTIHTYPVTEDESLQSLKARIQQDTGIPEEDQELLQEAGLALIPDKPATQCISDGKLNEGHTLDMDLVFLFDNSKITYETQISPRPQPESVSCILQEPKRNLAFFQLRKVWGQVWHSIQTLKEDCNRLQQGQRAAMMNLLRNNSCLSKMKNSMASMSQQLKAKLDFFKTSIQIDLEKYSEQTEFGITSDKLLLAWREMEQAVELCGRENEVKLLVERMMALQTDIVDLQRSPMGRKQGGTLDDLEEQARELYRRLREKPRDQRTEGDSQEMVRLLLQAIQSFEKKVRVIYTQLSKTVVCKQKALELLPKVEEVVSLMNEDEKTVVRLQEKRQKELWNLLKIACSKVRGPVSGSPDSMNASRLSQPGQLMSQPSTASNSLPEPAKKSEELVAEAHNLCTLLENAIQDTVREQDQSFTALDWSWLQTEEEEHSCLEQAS
Chain of UniProt Q9Y271 (whole entry, looked up): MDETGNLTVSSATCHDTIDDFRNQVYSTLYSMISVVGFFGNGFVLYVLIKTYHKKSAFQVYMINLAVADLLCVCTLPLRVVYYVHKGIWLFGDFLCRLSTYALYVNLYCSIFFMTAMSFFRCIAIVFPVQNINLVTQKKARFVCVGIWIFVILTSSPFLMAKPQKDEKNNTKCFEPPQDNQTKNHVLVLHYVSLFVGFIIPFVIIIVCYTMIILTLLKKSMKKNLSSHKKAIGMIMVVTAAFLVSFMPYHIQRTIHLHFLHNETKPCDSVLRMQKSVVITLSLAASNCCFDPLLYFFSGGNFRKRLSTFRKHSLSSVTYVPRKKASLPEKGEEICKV
Chain of UniProt P53341 (whole entry, looked up): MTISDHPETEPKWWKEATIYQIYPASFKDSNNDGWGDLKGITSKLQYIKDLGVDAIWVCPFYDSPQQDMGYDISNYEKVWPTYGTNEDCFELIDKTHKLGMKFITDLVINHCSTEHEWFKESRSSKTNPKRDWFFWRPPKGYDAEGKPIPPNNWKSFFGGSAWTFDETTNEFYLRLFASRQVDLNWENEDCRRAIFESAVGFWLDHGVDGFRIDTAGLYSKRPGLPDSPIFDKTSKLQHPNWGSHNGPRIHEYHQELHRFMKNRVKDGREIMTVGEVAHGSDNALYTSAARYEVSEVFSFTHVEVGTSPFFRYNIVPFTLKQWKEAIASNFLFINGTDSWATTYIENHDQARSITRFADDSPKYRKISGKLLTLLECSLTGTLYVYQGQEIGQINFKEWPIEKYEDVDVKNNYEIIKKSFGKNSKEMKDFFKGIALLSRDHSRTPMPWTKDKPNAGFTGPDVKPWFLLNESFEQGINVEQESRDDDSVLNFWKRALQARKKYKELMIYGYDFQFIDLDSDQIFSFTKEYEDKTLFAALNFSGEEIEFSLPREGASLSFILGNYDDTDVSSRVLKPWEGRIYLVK
Chain of UniProt Q7RTT9 (whole entry, looked up): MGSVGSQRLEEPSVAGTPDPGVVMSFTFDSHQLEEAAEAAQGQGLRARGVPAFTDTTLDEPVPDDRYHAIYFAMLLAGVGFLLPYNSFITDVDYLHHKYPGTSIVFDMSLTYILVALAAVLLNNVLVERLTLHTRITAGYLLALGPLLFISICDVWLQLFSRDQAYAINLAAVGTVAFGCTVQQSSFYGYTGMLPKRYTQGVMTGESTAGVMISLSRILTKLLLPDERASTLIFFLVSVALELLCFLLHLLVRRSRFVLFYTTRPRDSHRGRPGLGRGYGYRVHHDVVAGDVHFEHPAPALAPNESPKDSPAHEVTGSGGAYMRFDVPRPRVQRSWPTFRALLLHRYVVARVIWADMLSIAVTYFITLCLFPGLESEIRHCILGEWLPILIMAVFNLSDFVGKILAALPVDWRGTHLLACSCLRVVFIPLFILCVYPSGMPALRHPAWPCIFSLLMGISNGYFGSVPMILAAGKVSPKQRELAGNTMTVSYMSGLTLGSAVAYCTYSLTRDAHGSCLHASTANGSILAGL

O=C1N=C(N2CCCCN2)S/C1=C\c1ccc(F)cc1O has an inhibition of under 10% (rat alpha2-adrenergic receptor; radioligand binding; rat cerebral cortex; 10 µM, together with: [3H]RX 821002).
For C=CC[C@@H]1c2ccc(OC)c(OC)c2CN2CCc3cc4c(cc3[C@H]12)OCO4, the inhibition was 78.7% (P2X purinoceptor 7 (Ailuropoda melanoleuca, UniProt G1M6C4); ATP-evoked current, whole-cell patch clamp; HEK293 (transfected); 10 µM, together with: ATP 1 mM).
With Cc1cc(-c2ccnc3[nH]cc(F)c23)cc(F)c1[C@@]1(O)[C@H](C)CN(C(=O)CN)C[C@@H]1C the inhibition was -27.1% (AKT2 and AKT3; ATP probe binding, KiNativ, measured: ATP loop; HEK293T cell lysate; 1 µM).
CC[C@@H]1[C@H](F)C(=O)N[C@@H]1COc1nccc2cc(C(N)=O)c(OC)cc12 gave an inhibition of 8.7% (5'-AMP-activated protein kinase catalytic subunit alpha-1 (PRKAA1, Homo sapiens, UniProt Q13131); ATP probe binding, KiNativ profiling, measured: ATP loop probe site; THP-1 cell lysate; 0.2 mM).
CCc1oc2ccccc2c1C(=O)c1cc(Br)c(O)c(Br)c1 gave an inhibition of 42.8% (Solute carrier family 22 member 12 (SLC22A12, Homo sapiens, UniProt Q96S37, L153A); uric acid uptake; HEK293T transfected with SLC22A12 L153A; 0.5 µM, 10 min, 37 °C, mean, together with: [14C]urate 200 µM).
The inhibition of COc1ccc(-c2nn(-c3ccc(S(C)(=O)=O)cc3)cc2C=N/N=c2\[nH]c(-c3ccc([N+](=O)[O-])cc3)cs2)cc1 is reported as 95.3% (Epidermal growth factor receptor (EGFR, Homo sapiens, UniProt P00533, L858R); kinase activity, inhibitor; 100 µM).
C[C@@H]1CCO[C@H]2Cn3cc(C(=O)NCc4ccc(F)cc4F)c(=O)c(O)c3C(=O)N12 has an inhibition of -7.12% (Equilibrative nucleoside transporter 4 (SLC29A4, Homo sapiens, UniProt Q7RTT9); transport; MDCK-II, transfected; 1 µM, together with: MPP+ 10 µM).
For Cc1cc(-c2ccnc3[nH]cc(F)c23)cc(F)c1[C@@]1(O)[C@H](C)CN(C2CCS(=O)(=O)CC2)C[C@@H]1C, the inhibition was 18.7% (AKT1 and AKT3; ATP probe binding, KiNativ, measured: Lys2 site; HEK293T cell lysate; 10 µM).
With Cc1ccc(CNC(=O)[C@H](CCc2ccccc2)NC(=O)[C@H](CCc2ccccc2)NC(=O)[C@H](CCc2ccccc2)NC(=O)c2cnc(C)cn2)cc1 the inhibition was 45% (F12; enzyme activity, inhibitor; 100 µM).
Fc1ccc(/C=C/C=N/NC(=S)Nc2ccc(Cl)cc2)cc1 has an inhibition of 82.6% (Urease subunit alpha; enzyme activity, indophenol method; 500 µM).
With C=C1C(=O)O[C@@H]2C[C@@]3(C)CCCC(=C)[C@@H]3C[C@H]12 the metabolic activity was 0.71 ± 0.09 (COS-7; WST-8; 30 µM, 24 h, 0.1% DMSO, unit not given; reference: vehicle control).
With CN(C)C1CCN(CC#Cc2nn(C3CCCC3)c3nc(NCc4ccccc4)ncc23)C1 (stereo not drawn) the inhibition was 16% (5'-AMP-activated protein kinase catalytic subunit alpha-1, with beta1, gamma1 (PRKAA1, Homo sapiens, UniProt Q13131); enzyme activity, inhibitor, Z'-LYTE; 1000 nM).
COc1ccc2c(c1)C(=O)N(CCCN1CCN(c3ccccc3OC)CC1)C2 gave an inhibition of 92.5% (5-hydroxytryptamine receptor 1A (HTR1A, Homo sapiens, UniProt P08908); radioligand binding; concentration not given, together with: [3H]8-OH-DPAT).
With COc1cc(-c2cc(C(C)=O)n3ccccc23)c(OC)cc1Cn1ccnc1 the inhibition was -16.9% (Bromodomain testis-specific protein, BD1 (BRDT, Homo sapiens, UniProt Q58F21); 1 µM).
CCS(=O)(=O)c1nc(S(=O)(=O)c2ccccc2Cl)c(N2CCN(C)C(=O)[C@H]2C)s1 has an inhibition of 0.06% (HRH4; 10 µM).
With N=C(N)c1ccc(-c2ccc(-c3ccc(C(=N)N)cc3)o2)cc1 the inhibition was 99 ± 8% (F12; enzyme activity, inhibitor; concentration not given, pH 7.4).
With COc1ccc(-c2coc3c(Cn4nc(C)cc4C)c(O)ccc3c2=O)cc1 the inhibition was 67.2% (Alpha-glucosidase MAL12 (MAL12, Saccharomyces cerevisiae S288c, UniProt P53341); inhibitor; 25 µM).
For Cn1cc(-c2cnc3ccc(NC(=O)Nc4ccc(F)c(Br)c4)cc3n2)cn1, the inhibition was 4.8% (Inhibitor of nuclear factor kappa-B kinase subunit beta (IKBKB, Homo sapiens, UniProt O14920); kinase binding, KiNativ profiling, measured: Lys2 peptide; PANC-1 lysate; 5 µM).
With COc1cc(O)c2c(c1)C(=O)c1cc(C)cc(O)c1C2=O the cell viability was 64.9 ± 10.7% (HepaRG co-cultured with HK-2; MTT; 66.67 µM, 48 h; reference: untreated control).
The inhibition of CN(C(=O)n1cnc(-c2ccc[n+]([O-])c2)c1)C1CCCCC1 is reported as -3.96% (Cysteinyl leukotriene receptor 1 (CYSLTR1, Homo sapiens, UniProt Q9Y271); 10 µM).
For COc1cccc(OC[C@@H]2CN(CCN3CCc4ccccc43)CCO2)c1, the inhibition was 13.4% (HTR4; radioligand binding; concentration not given).
For Fc1ccc(/C=C/C=N/NC(=S)NCc2ccccc2)cc1, the inhibition was 85.3% (Urease subunit alpha; enzyme activity, indophenol method; 500 µM).
The inhibition of O=C1c2ccccc2CCCN1CCCCN1CCN(c2ccccn2)CC1 is reported as 36.7% (DRD5; radioligand binding; concentration not given, together with: [3H]SCH23390).
For COc1c(O)c(C)cc2c1C(=O)c1c(cc(O)c(O)c1O)C2=O, the cell viability was 63.2 ± 6.5% (HepaRG co-cultured with HK-2; MTT; 133.33 µM, 48 h; reference: untreated control).
The inhibition of COc1ccc2c(c1)CN(CCCN1CCN(c3ccccc3OC)CC1)C2=O is reported as 32.5% (DRD5; radioligand binding; concentration not given, together with: [3H]SCH23390).
The tissue uptake of CC(C)C[C@H](NC(=O)C[C@H](O)[C@H](CC(C)C)NC(=O)[C@H](Cc1c[nH]cn1)NC(=O)CNC(=O)[C@@H](NC(=O)[C@H](C)NC(=O)[C@H](Cc1c[nH]c2ccccc12)NC(=O)[C@H](CCC(N)=O)NC(=O)[C@@H](Cc1ccccc1)NC(=O)COCCOCCNC(=O)CCC(C(=O)O)N1CCN(CC(=O)O)CCN(CC(=O)O)CCN(CC(=O)O)CC1)C(C)C)C(N)=O (stereo partly drawn) [lutetium-177 labelled] is reported as 0.19 ± 0.05 %ID/g (BALB/c nu/nu mice, heart; intravenous, 750 pmol, 1 h, together with: PA 300 µg).
O=C(CN1CCO[C@H](COc2cccnc2)C1)N1CCc2ccccc21 has an inhibition of -7.2% (DRD5; radioligand binding; concentration not given, together with: [3H]SCH23390).
The inhibition of COc1cc(C(=O)NS(=O)(=O)c2ccccc2C)ccc1Cc1cn(C)c2ccc(NC(=O)OC3CCCC3)cc12 is reported as 64.4% and 65% and 77.4% and 54.5% (Volume-regulated anion channel subunit LRRC8C, part LRRC8A IL1 chimera (LRRC8C, Homo sapiens, UniProt Q8TDW0, M48D); ion current, inhibitor, whole-cell patch clamp; HCT LRRC8-/- cells; 100 µM, constitutively open channel, +100 mV).
The metabolic activity of O=C(Nc1cnc2ccccc2c1)c1cc2[nH]ccc2cc1Cl is reported as 0.99 ± 0.04 (COS-7; WST-8; 10 µM, 24 h, 0.1% DMSO, unit not given; reference: vehicle control).
O=C(CN1CCO[C@H](COc2ccccc2)C1)N1CCc2ccccc21 has an inhibition of 8.3% (HTR4; radioligand binding; concentration not given).
O=C(NO)c1ccc(CN2CCCCc3ccccc32)c(F)c1 has an inhibition of -1.57% (HRH4; radioligand binding, radioligand displacement; 10 µM, mean of replicates).
With Clc1cncc(OC[C@@H]2CN(CCN3CCc4ccccc43)CCO2)c1 the inhibition was 24.4% (HTR4; radioligand binding; concentration not given).
With C[C@H]1c2nc3ccccc3c(-c3ccccc3)c2[C@H]2C[C@@H]1N(Cc1ccccc1)C[C@]2(C)O the inhibition was 0% (Mu-type opioid receptor (Cavia porcellus, UniProt A0ACM8Q262); binding, radioligand binding; guinea pig brain membranes; 1 µM, together with: [3H]DAMGO).
The inhibition of Clc1cccc(OC[C@@H]2CN(CCN3CCc4ccccc43)CCO2)c1 is reported as 22.7% (DRD5; radioligand binding; concentration not given, together with: [3H]SCH23390).
O=C(Nc1cccc2c(=O)cc(-c3nnn[nH]3)oc12)c1ccc(OCCCCc2ccccc2)cc1 has an inhibition of 25% and 11.6% and 3.8% and -1.06% (Volume-regulated anion channel subunit LRRC8C, part LRRC8A IL1 chimera (LRRC8C, Homo sapiens, UniProt Q8TDW0); ion current, inhibitor, whole-cell patch clamp; HCT LRRC8-/- cells, transfected; 0.3 µM, low ionic strength swelling, +100 mV).
Cc1cc2c(cc1N1C(=O)c3cccc4c(CCCO)ccc(c34)C1=O)n(C)c(=O)n2C (racemic) gave an inhibition of 79% (Bromodomain testis-specific protein, BD2 (BRDT, Homo sapiens, UniProt Q58F21); binding, BROMOscan binding; 100 nM).

Some of these lines once more:
For C=CC[C@@H]1c2ccc(OC)c(OC)c2CN2CCc3cc4c(cc3[C@H]12)OCO4, the inhibition was 78.7% (P2X purinoceptor 7 (Ailuropoda melanoleuca, UniProt G1M6C4); ATP-evoked current, whole-cell patch clamp; HEK293 (transfected); 10 µM, together with: ATP 1 mM).
With Cc1cc(-c2ccnc3[nH]cc(F)c23)cc(F)c1[C@@]1(O)[C@H](C)CN(C(=O)CN)C[C@@H]1C the inhibition was -27.1% (AKT2 and AKT3; ATP probe binding, KiNativ, measured: ATP loop; HEK293T cell lysate; 1 µM).
CC[C@@H]1[C@H](F)C(=O)N[C@@H]1COc1nccc2cc(C(N)=O)c(OC)cc12 gave an inhibition of 8.7% (5'-AMP-activated protein kinase catalytic subunit alpha-1 (PRKAA1, Homo sapiens, UniProt Q13131); ATP probe binding, KiNativ profiling, measured: ATP loop probe site; THP-1 cell lysate; 0.2 mM).
CCc1oc2ccccc2c1C(=O)c1cc(Br)c(O)c(Br)c1 gave an inhibition of 42.8% (Solute carrier family 22 member 12 (SLC22A12, Homo sapiens, UniProt Q96S37, L153A); uric acid uptake; HEK293T transfected with SLC22A12 L153A; 0.5 µM, 10 min, 37 °C, mean, together with: [14C]urate 200 µM).
The inhibition of COc1ccc(-c2nn(-c3ccc(S(C)(=O)=O)cc3)cc2C=N/N=c2\[nH]c(-c3ccc([N+](=O)[O-])cc3)cs2)cc1 is reported as 95.3% (Epidermal growth factor receptor (EGFR, Homo sapiens, UniProt P00533, L858R); kinase activity, inhibitor; 100 µM).
